Measured values from different studies.
Each line is one published result; not all experiments were run side by side.

CNC(=O)c1ccc(-c2cnc3ncc(Cc4ccc5ncccc5c4)n3n2)cc1F
patients with adverse event (measured: Dyspepsia, all grades; cancer patients; oral, 600 mg twice daily, expansion cohort, any causality): 11%

C=CC(=O)NC1CCN(c2ncc3ncnc(Nc4ccc(Oc5ccc6c(c5)ncn6C)c(C)c4)c3n2)CC1
patients with Constipation (male patients; oral, dose not given, treatment-related adverse events): 0%

COc1cc(Nc2ncc3c(n2)-c2ccc(Cl)cc2C(c2c(F)cccc2OC)=NC3)ccc1C(=O)O
patients with adverse event (measured: Tracheitis, all grades; cancer patients, phase 1/2; oral, dose not given, with: pembrolizumab): 4%

Cc1cc(NC2CCN(C(=O)OC3CCN(C(=O)/C=C/CN(C)C)C3)CC2)n2ncc(C(C)C)c2n1 (stereo not shown)
patients with Hypomagnesemia (patients with advanced solid tumours; dose not given, QD arm, grade 3 or higher): 0%

Cc1cc(-c2nnc(N)nc2-c2ccc(F)cc2)cc(Cl)n1
patients with immune-mediated AE (measured: Hypothyroidism; IO-naive mCRPC patients, male; oral, dose not given, treatment-related, grade ≥3): 0%

O=C(Nc1nc2cccc(-c3ccc(CN4CCS(=O)(=O)CC4)cc3)n2n1)C1CC1
patients with Vertigo (rheumatoid arthritis patients; oral, 100 mg twice daily, 4 weeks, TEAE regardless of relatedness): 8.3%

CCOc1c([C@H](C)n2nc(C)c3c(N)ncnc32)cc(Cl)c(F)c1[C@@H]1CNC(=O)C1
patients (measured: QTcF ≤450 ms; previously treated B-cell malignancy; oral, 20 mg once daily, overall population): 100%

COc1ccc([C@@H](O)c2cc(-c3ncnc4cc(N5CCOCC5)ccc34)c(F)cc2Cl)nn1
patients with drug-related AE (measured: general and administration site disorders; locally advanced rectal cancer patients; 100 mg, with: capecitabine plus radiotherapy): 67%

CNC(=O)c1cc(Oc2ccc(NC(=O)Nc3cc(C(C)(C)C)nn3-c3ccc4ncccc4c3)c(F)c2)ccn1
patients with grade 1 musculoskeletal disorders (patients; oral, dose not given, cycles 1 and 2, High AUC subgroup): 22%

C[C@@H](Nc1cc(F)cc(F)c1)c1cc(C(=O)N(C)C)cc2c(=O)cc(N3CCOCC3)oc12
patients discontinuing for AE (measured: Pyrexia; advanced solid tumour patients; oral, dose not given, dose finding): 1.6%

Repeated from above:
CNC(=O)c1ccc(-c2cnc3ncc(Cc4ccc5ncccc5c4)n3n2)cc1F
patients with adverse event (measured: Dyspepsia, all grades; cancer patients; oral, 600 mg twice daily, expansion cohort, any causality): 11%
